Measured values collected from several papers.
Parts stem from different laboratories: compare values within a part only. Positions count from the first letter of the parent shown.

Sample 1 — method: RNA Bind-n-Seq; form: RNA; matrix: in vitro; tested at: 200 nM; setting: whole 134-nt RNA, ends assumed; together with: 150 mM LiCl; relative to: input library; direction: higher = stronger binding; library: 7-deaza-guanosine replaces G
Target: Fragile X messenger ribonucleoprotein 1, C-terminal low-complexity region (Fmr1, Mus musculus, UniProt P35922)
All sequences stand within: GGGAGUUCUACAGUCCGACGAUC … UGGAAUUCUCGGGUGUCAAGG
Strand | log2 enrichment
CUCAAGUCCUGUGCUACACAUCGUAUGUACCGAAUCGGGGUUGGGUUGGUUGGGAAAGUAUUAUGUUACGCCGUUCGGAUCUGCACUUCC | 0.0836
UGGGAGGUGGAUUUUGUUUAUUUUUGUAGCUCAUUUCCAGGGGUGGGAAUUUUUUUUUAAUAUGUGUCAUGAAUAAAGUUGUUUUUGAAA | 0.351
GUCCUGUGCUACACAUCGUAUGUACCGAAUCGGUUUUUGGGGUUUUUGGGGUUUUUGGAAAGUAUUAUGUUACGCCGUUCGGAUCUGCAC | -0.444
CUCAAGUCCUGUGCUACACAUCGUAUGUACCGAAUCGGAAAGGAAAAAGGAGGAAAGUAUUAUGUUACGCCGUUCGGAUCUGCACUUCCA | -0.717
GUCCUGUGCUACACAUCGUAUGUACCGAAUCAAAUUUAAACCCCCCCAAACCCCCAAAAAAGUAUUAUGUUACGCCGUUCGGAUCUGCAC | 1.37
UCAAGUCCUGUGCUACACAUCGUAUGUACCGAAUCGGUUUUUUUGGUUUGGAGGAAAGUAUUAUGUUACGCCGUUCGGAUCUGCACUUCC | -1.36
CAAGUCCUGUGCUACACAUCGUAUGUACCGAAUCGGUUUUUGGUUUUUUUGGAGGAAAGUAUUAUGUUACGCCGUUCGGAUCUGCACUUC | -0.926
CCUCAAGUCCUGUGCUACACAUCGUAUGUACCGAAUCGGGGUGGGGUGGUGGAAAGUAUUAUGUUACGCCGUUCGGAUCUGCACUUCCAG | -0.63

Sample 2 — target: JUNB, bZIP domain (human); method: DHFR protein complementation; matrix: yeast; relative to: wild-type JUN-FOS pair; direction: higher = stronger binding
Setting: single substitutions, most at no-binding floor
Starting sequence: JUN, bZIP domain (human); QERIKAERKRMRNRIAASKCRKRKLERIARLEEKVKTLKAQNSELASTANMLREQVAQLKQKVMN; partner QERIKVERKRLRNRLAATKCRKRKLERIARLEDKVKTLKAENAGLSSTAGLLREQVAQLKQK
Variant | binding fitness [natural log]
V56H | -1.24
Q41L | -1.2
Q55M | -1.2
K39I | -1.24
A29K | -1.11
T48P | -1.54
L52Q | -1.52
I28N | -1.59
R53V | -1.5
V35G | -1.5
S43L | -0.972
R53M | -1.39
R30M | -0.992
Q55R | -1.41
A40C | -1.32
L38G | -1.5
K39F | -1.5
K39W | -1.43
L31Y | -1.41
S47H | -0.987
Q41R | -1.24

Sample 3 — method: DHFR PCA, deep sequencing; matrix: yeast; together with: (+)-ABA 1.4 µM; relative to: wild-type fitted maximum; direction: higher = stronger binding
Target: ABI1, truncated, D143A, DHFR fusion (Arabidopsis thaliana)
Setting: methotrexate growth selection, single substitutions
Starting sequence: PYL1, truncated, DHFR fusion (Arabidopsis thaliana); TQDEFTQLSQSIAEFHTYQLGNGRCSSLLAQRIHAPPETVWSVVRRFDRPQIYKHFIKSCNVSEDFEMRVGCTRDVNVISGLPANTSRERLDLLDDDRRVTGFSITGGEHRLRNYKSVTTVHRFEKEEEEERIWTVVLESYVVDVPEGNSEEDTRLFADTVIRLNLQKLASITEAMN
Variant | relative binding score [%]
Q51C | -16.4
A35M | -6.47
E109F | -0.515
A13Y | 5.26
D144V | -5.17
V44E | -20.7
D92L | 2.82
N77G | 38.1
K116Y | -11.7
R74L | -5.57
F56W | 27
E125D | 54.8
S63R | 50.3
L82K | -9.23
V62A | 8.29
P37S | 18.8
P50I | -10.8

Sample 4 — target: CCNA1, cyclin fold, Cln2 fusion (human); method: yeast growth competition, sequencing; matrix: yeast; setting: weak parent motif; relative to: not given; direction: higher = stronger binding
Starting sequence: CDKN1A docking peptide (human); SKACRRLFGPVDS; partner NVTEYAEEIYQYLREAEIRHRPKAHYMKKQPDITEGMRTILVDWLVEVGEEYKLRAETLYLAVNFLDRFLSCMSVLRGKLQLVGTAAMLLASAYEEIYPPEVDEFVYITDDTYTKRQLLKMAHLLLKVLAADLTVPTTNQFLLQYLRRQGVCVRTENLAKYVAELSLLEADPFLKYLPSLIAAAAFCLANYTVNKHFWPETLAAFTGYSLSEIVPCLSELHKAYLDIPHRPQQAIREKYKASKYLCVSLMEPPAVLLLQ
Variant | normalised enrichment score
SKACTRLFGPVDS [R5T] | -0.102
SGACRRLFGPVDS [K2G] | 0.481
SKACARAFGPVDS [R5A L7A] | 0.189
SKACRSLFGPVDS [R6S] | 0.219
SKACRRLFGPVSS [D12S] | 0.153
SKACRRKFGPVDS [L7K] | 0.35
SKACRRLFWPVDS [G9W] | 0.627
SKACKRLFGPVDS [R5K] | 0.316
SKACLRLFGPVDS [R5L] | 0.0031
SKACRRTFGPVDS [L7T] | 0.64
SKACRRLKGPVDS [F8K] | 0.239
SKACRRLFGPVNS [D12N] | 0.519
SKACRRLQGPVDS [F8Q] | 0.0482
SKACRDLFGPVDS [R6D] | 0.106
SKACRGLFGPVDS [R6G] | -0.127
SKACCRLFGPVDS [R5C] | -0.0514
SKACRRLFRPVDS [G9R] | 0.0901
SKACRRLFGAVDS [P10A] | 0.43
SKLCRRLFGPVDS [A3L] | 0.0699
SKACRRYFGPVDS [L7Y] | 0.374
SKACRRLFQPVDS [G9Q] | 0.567
SKACARLFGPVDS [R5A] | -0.0246
SKACRRLCGPVDS [F8C] | 0.256
SKACRRLFGFVDS [P10F] | -0.382
SKACWRLFGPVDS [R5W] | -0.116

A few entries again (sample 3):
Variant | relative binding score [%]
K116Y | -11.7
R74L | -5.57
F56W | 27
E125D | 54.8
S63R | 50.3
L82K | -9.23
V62A | 8.29
P37S | 18.8
